Measurements of several laboratories.
Each line is one published result; not all experiments were run side by side. ± marks the error that the study gave.
VSIR: V-type immunoglobulin domain-containing suppressor of T-cell activation (VSIR, Homo sapiens, UniProt Q9H7M9)
WEE1/CRBN: WEE1/CRBN (Homo sapiens, UniProt P30291+Q96SW2)
RPA1 N-terminal domain: Replication protein A 70 kDa DNA-binding subunit, N-terminal domain (RPA1, Homo sapiens, UniProt P27694)

Protein sequences, listed by entry. Tags and fused reporters are not part of them.
UniProt Q9H7M9, whole entry, looked up: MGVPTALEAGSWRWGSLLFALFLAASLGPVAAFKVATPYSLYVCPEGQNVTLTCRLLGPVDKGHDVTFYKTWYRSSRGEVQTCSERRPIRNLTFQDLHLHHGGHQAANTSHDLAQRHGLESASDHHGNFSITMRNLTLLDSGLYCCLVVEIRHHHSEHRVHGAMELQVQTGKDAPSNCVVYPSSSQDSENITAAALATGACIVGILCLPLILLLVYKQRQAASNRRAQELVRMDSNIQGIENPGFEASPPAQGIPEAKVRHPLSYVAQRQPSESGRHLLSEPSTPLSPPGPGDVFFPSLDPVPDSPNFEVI
UniProt P30291, whole entry: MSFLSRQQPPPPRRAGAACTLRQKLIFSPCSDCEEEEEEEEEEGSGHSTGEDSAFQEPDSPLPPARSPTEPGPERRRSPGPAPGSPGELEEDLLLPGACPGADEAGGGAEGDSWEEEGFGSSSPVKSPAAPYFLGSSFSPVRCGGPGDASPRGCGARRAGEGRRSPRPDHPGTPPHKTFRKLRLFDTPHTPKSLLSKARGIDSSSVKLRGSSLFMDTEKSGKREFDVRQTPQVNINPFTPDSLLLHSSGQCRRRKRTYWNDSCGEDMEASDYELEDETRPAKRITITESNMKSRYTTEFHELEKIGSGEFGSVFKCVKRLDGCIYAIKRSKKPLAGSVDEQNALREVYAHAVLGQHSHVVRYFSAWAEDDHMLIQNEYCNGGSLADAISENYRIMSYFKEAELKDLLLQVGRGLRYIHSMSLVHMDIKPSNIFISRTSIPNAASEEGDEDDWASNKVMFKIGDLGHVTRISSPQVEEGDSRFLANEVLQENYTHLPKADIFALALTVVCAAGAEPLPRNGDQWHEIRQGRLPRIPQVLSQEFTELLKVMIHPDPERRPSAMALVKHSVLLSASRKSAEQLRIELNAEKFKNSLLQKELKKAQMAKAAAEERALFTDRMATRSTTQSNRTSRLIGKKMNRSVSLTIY
UniProt Q96SW2, whole entry: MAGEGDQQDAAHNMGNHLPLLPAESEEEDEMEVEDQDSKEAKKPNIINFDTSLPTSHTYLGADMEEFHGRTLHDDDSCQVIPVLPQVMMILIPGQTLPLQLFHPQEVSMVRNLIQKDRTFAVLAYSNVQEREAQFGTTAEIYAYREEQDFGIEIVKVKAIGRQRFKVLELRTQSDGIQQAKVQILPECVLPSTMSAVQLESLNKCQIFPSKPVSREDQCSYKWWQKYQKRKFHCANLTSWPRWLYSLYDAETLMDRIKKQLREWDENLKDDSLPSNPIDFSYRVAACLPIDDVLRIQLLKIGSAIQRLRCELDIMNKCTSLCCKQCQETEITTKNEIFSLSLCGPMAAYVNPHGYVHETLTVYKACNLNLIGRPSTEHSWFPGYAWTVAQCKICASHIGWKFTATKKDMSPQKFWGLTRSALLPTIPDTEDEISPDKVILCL
UniProt O60502, whole entry: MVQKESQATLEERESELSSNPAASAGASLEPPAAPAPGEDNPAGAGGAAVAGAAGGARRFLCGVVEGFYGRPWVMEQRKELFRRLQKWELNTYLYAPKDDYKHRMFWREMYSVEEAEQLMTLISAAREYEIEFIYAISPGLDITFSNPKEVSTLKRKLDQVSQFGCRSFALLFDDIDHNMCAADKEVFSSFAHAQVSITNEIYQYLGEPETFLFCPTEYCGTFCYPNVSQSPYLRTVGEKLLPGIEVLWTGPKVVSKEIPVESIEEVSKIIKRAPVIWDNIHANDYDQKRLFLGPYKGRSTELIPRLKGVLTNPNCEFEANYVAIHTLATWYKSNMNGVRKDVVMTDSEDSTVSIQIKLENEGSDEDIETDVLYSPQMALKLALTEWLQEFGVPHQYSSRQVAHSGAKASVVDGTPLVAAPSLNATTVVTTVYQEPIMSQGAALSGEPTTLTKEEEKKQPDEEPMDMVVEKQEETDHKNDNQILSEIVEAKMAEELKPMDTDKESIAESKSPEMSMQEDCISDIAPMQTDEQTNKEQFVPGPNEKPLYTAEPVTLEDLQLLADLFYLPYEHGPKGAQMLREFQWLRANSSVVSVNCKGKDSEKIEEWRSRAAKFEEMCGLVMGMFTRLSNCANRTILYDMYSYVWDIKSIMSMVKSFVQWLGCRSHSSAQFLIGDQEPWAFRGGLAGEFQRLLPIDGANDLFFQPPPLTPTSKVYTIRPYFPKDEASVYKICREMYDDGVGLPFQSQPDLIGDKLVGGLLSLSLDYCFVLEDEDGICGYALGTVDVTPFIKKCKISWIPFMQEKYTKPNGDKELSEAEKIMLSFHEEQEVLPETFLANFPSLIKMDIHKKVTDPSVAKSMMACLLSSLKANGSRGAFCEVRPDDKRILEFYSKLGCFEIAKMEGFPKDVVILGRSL
UniProt Q9UHM6, whole entry: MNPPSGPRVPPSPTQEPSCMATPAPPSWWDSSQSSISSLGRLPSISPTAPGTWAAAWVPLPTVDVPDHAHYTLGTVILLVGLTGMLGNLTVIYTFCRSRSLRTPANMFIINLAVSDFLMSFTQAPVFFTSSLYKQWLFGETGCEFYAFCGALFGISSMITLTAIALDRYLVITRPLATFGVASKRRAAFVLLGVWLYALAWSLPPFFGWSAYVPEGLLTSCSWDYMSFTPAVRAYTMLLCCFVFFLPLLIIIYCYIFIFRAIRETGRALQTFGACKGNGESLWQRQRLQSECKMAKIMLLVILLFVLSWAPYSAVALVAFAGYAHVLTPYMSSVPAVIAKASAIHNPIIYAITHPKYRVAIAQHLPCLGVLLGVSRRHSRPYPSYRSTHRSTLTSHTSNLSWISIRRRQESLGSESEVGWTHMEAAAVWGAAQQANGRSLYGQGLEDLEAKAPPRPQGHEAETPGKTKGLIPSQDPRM
UniProt Q86U86, whole entry Y262F, looked up: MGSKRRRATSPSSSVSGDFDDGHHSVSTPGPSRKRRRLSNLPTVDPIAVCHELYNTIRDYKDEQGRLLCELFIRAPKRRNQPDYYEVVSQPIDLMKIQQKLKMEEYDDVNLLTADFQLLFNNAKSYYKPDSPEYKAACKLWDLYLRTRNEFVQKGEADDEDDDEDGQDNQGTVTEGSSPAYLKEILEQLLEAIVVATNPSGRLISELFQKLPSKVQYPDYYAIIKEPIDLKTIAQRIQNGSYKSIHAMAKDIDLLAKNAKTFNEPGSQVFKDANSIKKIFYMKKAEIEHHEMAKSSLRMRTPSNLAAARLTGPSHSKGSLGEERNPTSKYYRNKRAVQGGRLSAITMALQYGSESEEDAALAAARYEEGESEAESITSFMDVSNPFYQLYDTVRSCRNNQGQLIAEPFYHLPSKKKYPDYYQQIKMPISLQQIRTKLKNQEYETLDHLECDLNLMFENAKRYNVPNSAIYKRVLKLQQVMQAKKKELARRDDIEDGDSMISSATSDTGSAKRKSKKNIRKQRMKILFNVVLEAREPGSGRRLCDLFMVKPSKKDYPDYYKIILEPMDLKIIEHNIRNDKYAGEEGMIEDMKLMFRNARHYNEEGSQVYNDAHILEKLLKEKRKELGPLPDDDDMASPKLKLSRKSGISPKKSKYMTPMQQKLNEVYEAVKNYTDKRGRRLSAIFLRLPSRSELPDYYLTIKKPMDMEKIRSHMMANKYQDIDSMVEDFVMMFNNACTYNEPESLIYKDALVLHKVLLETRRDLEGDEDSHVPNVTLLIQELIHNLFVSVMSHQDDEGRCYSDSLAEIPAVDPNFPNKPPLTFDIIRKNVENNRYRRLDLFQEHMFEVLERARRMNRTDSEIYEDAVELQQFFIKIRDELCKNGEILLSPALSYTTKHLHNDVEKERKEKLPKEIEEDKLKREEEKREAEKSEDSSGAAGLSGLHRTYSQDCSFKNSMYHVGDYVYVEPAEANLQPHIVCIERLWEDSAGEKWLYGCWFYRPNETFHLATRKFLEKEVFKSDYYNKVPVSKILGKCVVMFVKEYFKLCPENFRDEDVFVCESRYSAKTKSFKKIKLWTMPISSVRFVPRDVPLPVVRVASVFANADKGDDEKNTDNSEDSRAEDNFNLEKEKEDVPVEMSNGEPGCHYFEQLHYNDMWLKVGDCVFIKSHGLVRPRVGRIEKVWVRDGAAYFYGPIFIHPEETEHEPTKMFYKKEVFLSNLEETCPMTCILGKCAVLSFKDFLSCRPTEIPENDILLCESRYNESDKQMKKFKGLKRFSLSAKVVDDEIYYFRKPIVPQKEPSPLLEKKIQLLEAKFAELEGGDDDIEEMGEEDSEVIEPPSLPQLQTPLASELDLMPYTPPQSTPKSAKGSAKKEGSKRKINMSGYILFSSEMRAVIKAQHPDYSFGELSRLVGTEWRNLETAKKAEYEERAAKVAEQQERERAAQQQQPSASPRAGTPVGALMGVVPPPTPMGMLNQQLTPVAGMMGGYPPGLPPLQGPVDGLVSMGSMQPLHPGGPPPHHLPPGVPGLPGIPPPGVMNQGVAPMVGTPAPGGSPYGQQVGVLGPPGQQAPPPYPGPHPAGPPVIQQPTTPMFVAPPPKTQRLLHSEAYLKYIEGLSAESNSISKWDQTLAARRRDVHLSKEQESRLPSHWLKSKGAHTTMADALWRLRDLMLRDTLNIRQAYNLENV
UniProt Q923Y8, whole entry T268M: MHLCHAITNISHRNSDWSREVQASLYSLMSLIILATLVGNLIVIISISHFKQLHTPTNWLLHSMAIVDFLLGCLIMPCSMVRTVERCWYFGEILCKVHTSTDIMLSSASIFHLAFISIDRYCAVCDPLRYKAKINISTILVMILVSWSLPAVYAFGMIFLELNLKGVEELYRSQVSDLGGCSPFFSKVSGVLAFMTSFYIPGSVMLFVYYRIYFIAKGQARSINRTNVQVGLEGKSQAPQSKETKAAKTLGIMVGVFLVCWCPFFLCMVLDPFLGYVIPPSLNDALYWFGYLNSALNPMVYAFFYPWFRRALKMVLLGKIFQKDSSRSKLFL
UniProt Q07817, whole entry: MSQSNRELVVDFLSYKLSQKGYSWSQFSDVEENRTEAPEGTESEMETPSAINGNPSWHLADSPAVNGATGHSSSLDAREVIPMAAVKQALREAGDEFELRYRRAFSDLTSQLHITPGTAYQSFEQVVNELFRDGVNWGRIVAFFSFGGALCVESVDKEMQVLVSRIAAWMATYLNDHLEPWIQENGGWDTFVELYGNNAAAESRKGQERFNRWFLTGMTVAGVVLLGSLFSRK
UniProt Q16531, whole entry partner: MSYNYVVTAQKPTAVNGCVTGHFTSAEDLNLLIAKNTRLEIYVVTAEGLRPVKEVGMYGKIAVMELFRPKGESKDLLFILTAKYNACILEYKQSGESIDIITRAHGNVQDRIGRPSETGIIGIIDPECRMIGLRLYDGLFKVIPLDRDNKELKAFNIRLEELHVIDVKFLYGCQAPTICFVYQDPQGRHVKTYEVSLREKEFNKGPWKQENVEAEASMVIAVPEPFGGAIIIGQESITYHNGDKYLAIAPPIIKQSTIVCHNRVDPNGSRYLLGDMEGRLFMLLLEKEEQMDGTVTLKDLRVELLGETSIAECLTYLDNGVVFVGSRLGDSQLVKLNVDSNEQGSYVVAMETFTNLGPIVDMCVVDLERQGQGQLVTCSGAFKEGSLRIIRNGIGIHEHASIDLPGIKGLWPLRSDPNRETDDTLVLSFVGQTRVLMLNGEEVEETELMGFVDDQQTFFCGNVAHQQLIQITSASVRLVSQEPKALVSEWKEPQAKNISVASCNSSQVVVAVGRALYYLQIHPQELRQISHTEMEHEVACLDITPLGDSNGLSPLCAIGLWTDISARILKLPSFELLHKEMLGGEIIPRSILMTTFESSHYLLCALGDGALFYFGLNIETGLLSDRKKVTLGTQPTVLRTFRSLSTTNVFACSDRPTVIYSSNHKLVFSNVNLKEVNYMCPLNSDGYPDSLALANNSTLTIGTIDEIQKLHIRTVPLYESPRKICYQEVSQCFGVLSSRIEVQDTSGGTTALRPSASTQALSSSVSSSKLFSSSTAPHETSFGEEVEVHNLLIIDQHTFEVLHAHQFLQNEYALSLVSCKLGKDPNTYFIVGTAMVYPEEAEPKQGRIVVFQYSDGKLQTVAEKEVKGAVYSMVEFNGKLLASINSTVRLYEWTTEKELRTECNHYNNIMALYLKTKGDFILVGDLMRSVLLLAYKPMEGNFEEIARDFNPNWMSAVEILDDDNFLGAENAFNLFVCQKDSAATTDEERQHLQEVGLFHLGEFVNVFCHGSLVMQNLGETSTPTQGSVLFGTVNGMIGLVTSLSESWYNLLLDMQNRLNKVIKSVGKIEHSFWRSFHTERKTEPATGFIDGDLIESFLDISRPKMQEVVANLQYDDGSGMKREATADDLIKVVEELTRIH

Structure (SMILES) | target | test | system | setting | endpoint | result
C=CCn1c(CN(C)Cc2cc(OC)c(OC)c(OC)c2)nnc1SCC1CCCO1 (centres unmarked) | VSIR | microscale thermophoresis | – | – | Kd | 720 nM
CC(C)(C)Nc1c(-c2ccc3c(c2)C(=O)N(C2CCC(=O)NC2=O)C3=O)nc2ccccn12 (centres unmarked) | WEE1/CRBN | degrader, HiBiT luciferase | Jurkat (HiBiT-tagged) | 5 h | DC50 | 8.6 ± 2.5 nM
CC(=O)Nc1ncc(CN2CC[C@H](Oc3cccc(F)n3)C[C@@H]2C)s1 [isotope labelled] | Protein O-GlcNAcase (OGA, Homo sapiens, UniProt O60502) | saturation binding | human hippocampus homogenate | radiolabelled compound | Kd | 2.6 ± 0.7 nM
CC(C)(C)CC(C)(C)Nc1c(-c2ccc3c(c2)C(=O)N(C2CCC(=O)NC2=O)C3=O)nc2ccccn12 (centres unmarked) | WEE1/CRBN | degrader, HiBiT luciferase | Jurkat (HiBiT-tagged) | 5 h | DC50 | 22 ± 5 nM
Cc1ccc(NC(=O)c2ccc(C)c(S(=O)(=O)Nc3cccc(Cl)c3)c2)c(C(=O)O)c1 | RPA1 N-terminal domain | binding, fluorescence polarisation competition | – | together with: FITC-ATRIP probe | Kd | 30000 ± 1000 nM
Cc1cc(S(=O)(=O)N2CCCCC2)ccc1Cl | Melanopsin (OPN4, Homo sapiens, UniProt Q9UHM6) | calcium release, antagonist, FLIPR Fluo-4 | CHO cells expressing human OPN4 | – | Kb | 260 nM
Cc1ccc(C(=O)Nc2ccccc2C(=O)O)cc1S(=O)(=O)NCC1CCCCC1 | RPA1 N-terminal domain | binding, fluorescence polarisation competition | – | together with: FITC-ATRIP probe | Kd | 126000 ± 1000 nM
Cc1cccc(C2NC(=O)c3c(Cl)cccc3N2)c1 (racemic) | Protein polybromo-1, BD2 (PBRM1, Homo sapiens, UniProt Q86U86, Y262F) | ITC | – | mutant | Kd | 17000 ± 3000 nM
NCC(c1ccc(O)cc1)c1ccc(Oc2ccccc2)cc1 (centres unmarked) | Trace amine-associated receptor 1 (Taar1, Mus musculus, UniProt Q923Y8, T268M) | cAMP, agonist | – | mouse receptor mutant | EC50 | > 10000 nM
Cc1ncsc1-c1ccc([C@H](C)NC(=O)[C@@H]2C[C@@H](O)CN2C(=O)[C@@H](NC(=O)CCCCCCC(=O)N2CCN(C[C@]3(C)CCC(c4ccc(Cl)cc4)=C(CN4CCN(c5ccc(C(=O)NS(=O)(=O)c6ccc(N[C@H](CCN7CCOCC7)CSc7ccccc7)c(S(=O)(=O)C(F)(F)F)c6)cc5)CC4)C3)CC2)C(C)(C)C)cc1 | Bcl-2-like protein 1 (BCL2L1, Homo sapiens, UniProt Q07817) | protein degradation, degrader, western blot | WI-38 non-senescent | – | DC50 | 4.81 nM
Cc1ccc(C(=O)Nc2ccc(F)cc2C(=O)O)cc1S(=O)(=O)Nc1ccc(Cl)c(Cl)c1 | RPA1 N-terminal domain | binding, fluorescence polarisation competition | – | together with: FITC-ATRIP probe | Kd | 15000 ± 1000 nM
CCCCS(=O)(=O)c1nnc(NC(=O)COc2ccccc2OC)s1 | VSIR | microscale thermophoresis | – | – | Kd | 4460 nM
CCc1ccc(NC(=O)c2ccc(C)c(S(=O)(=O)Nc3ccc(Cl)c(Cl)c3)c2)c(C(=O)O)c1 | RPA1 N-terminal domain | binding, fluorescence polarisation competition | – | together with: FITC-ATRIP probe | Kd | 4000 ± 190 nM
O=C1CCC(N2Cc3cc(-c4nc5ccccn5c4Nc4ccccc4)ccc3C2=O)C(=O)N1 (centres unmarked) | WEE1/CRBN | degrader, HiBiT luciferase | Jurkat (HiBiT-tagged) | 5 h | DC50 | 1.9 ± 1.1 nM

Excerpt of the above:
Structure (SMILES) | target | test | system | setting | endpoint | result
O=C1CCC(N2Cc3cc(-c4nc5ccccn5c4Nc4ccccc4)ccc3C2=O)C(=O)N1 (centres unmarked) | WEE1/CRBN | degrader, HiBiT luciferase | Jurkat (HiBiT-tagged) | 5 h | DC50 | 1.9 ± 1.1 nM
